Results collected from several papers.
Parts stem from different laboratories: compare values within a part only. Values joined by “and” are separate records of one study, mostly repeats; a detail may differ.
UniProt Q8IWQ3, sequence (whole entry, looked up): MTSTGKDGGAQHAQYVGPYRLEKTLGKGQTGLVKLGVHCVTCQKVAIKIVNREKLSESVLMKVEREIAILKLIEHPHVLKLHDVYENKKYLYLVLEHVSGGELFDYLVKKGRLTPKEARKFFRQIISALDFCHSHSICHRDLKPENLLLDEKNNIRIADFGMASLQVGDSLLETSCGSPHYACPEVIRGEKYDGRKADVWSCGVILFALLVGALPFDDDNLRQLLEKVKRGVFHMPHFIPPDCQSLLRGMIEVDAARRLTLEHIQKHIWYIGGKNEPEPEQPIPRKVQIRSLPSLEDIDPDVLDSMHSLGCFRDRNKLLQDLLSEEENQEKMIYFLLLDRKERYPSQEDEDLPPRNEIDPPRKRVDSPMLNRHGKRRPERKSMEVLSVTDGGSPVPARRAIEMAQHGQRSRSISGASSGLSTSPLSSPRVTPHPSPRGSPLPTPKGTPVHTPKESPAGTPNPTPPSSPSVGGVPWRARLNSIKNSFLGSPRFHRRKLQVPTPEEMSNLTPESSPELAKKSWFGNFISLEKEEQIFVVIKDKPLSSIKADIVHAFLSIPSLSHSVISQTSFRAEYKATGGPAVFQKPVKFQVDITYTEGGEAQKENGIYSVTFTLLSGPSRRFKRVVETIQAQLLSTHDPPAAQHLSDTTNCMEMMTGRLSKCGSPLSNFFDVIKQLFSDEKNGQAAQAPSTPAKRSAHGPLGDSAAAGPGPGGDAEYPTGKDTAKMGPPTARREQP

Study 1 — cell line: HaCaT; tested at: 100 µM; time: 18 h
For `CC[C@H]1OC(=O)[C@H](C)[C@@H](O[C@H]2C[C@@](C)(OC)[C@@H](O)[C@H](C)O2)[C@H](C)[C@@H](O[C@@H]2O[C@H](C)C[C@H](N(C)C)[C@H]2O)[C@](C)(OC)C[C@@H](C)C(=O)[C@H](C)[C@@H](O)[C@]1(C)O`, the viability was 112%.
`Cn1c(=O)c2c(ncn2CC2OCCO2)n(C)c1=O` has a viability of 98.8%.
`CN(C)c1ccc(O)c2c1C[C@H]1C[C@H]3[C@H](N(C)C)C(O)=C(C(N)=O)C(=O)[C@@]3(O)C(O)=C1C2=O` has a viability of 108%.
For `O=C1Nc2ccc(Cl)cc2[C@@](C#CC2CC2)(C(F)(F)F)O1`, the viability was 16.3%.
The viability of `CO[C@H]1C[C@@H]2CC[C@@H](C)[C@@](O)(O2)C(=O)C(=O)N2CCCC[C@H]2C(=O)O[C@H]([C@H](C)C[C@@H]2CC[C@@H](O)[C@H](OC)C2)CC(=O)[C@H](C)/C=C(\C)[C@@H](O)[C@@H](OC)C(=O)[C@H](C)C[C@H](C)/C=C/C=C/C=C/1C` is reported as 44.3%.
`CC(=O)c1ccc2c(c1)N(CCCN1CCC(CCO)CC1)c1ccccc1S2` has a viability of 17.1%.
`CC(=O)O[C@H]1C[C@@]2(C)[C@@H](C[C@@H](O)[C@H]3[C@@]4(C)CC[C@@H](O)[C@@H](C)[C@@H]4CC[C@@]32C)/C1=C(\CCC=C(C)C)C(=O)O` gave a viability of 99.4%.
`C=CCc1cc(OC)c(O)c(C(=O)NCCO)c1` has a viability of 117%.

Study 2 — matrix: plasma
SMILES: O=C1CCC(N2Cc3cc(C4CCN(Cc5ccccc5)CC4)ccc3C2=O)C(=O)N1 (stereo not shown)
male ICR mice; oral, 3.0 mg/kg — AUC(0-inf): 606 ng·h/mL and 665 ng·h/mL.
The AUC(0-inf) was 325 ng·h/mL and 433 ng·h/mL (male ICR mice; intravenous, 1.0 mg/kg).
mouse, ICR, male; oral, 3.0 mg/kg — AUC(0-inf): 539 ng·h/mL.
It gave 396 ng·h/mL for AUC(0-inf) (male Sprague Dawley rats; oral, 3.0 mg/kg).
The AUC(0-inf) was 335 ng·h/mL (male Sprague Dawley rats; intravenous, 1.0 mg/kg).
It gave 308 ng·h/mL for AUC(0-inf) (mouse, ICR, male; intravenous, 1.0 mg/kg).

Other studies, line by line
With `COc1ccc(-c2c(Nc3ccccn3)[nH]c3c(C4=CCCCC4)c(-c4ccccc4)nn3c2=O)cc1` the Ctau was 1150 ng/mL and 1090 ng/mL and 1190 ng/mL (human, plasma; oral, 50 mg QD).
`Cn1cncc1[C@](O)(COc1ccc(C#N)cc1-c1ccc(OC(F)(F)F)cc1)c1ccc(C#N)cc1` gave a remaining binding of 48% (BRSK2 (Homo sapiens, UniProt Q8IWQ3); cell-free assay, competition with immobilised ligand; 1 µM).

Excerpt of the above (study 2):
It gave 396 ng·h/mL for AUC(0-inf) (male Sprague Dawley rats; oral, 3.0 mg/kg).
The AUC(0-inf) was 335 ng·h/mL (male Sprague Dawley rats; intravenous, 1.0 mg/kg).
